Results of several laboratories.
Each line is one published result; not all experiments were run side by side. “And” joins repeats or separate records; there may be more than shown. ± marks the error that the study gave.

SMILES | tested on | test | system | conditions | scale | endpoint | result
Nc1ncc(-c2cc(-c3cnn(CC(F)(F)F)c3)ncc2F)nc1C(=O)NC1CNCC(F)C1 (stereo not drawn) | ABL1(H396P)-nonphosphorylated | KINOMEscan competition binding | – | 1 µM | reference: DMSO control | remaining binding | 94%
CC[C@H](C)[C@H](NC(=O)[C@H](CC(C)C)NC(=O)[C@H](CC(C)C)NC(=O)[C@H](CC(=O)O)NC(=O)[C@@H](NC(=O)[C@H](CCC(=O)O)NC(=O)[C@H](CCCCN)NC(=O)[C@H](Cc1ccc(O)cc1)NC(=O)[C@H](CCCCN)NC(=O)[C@H](Cc1c[nH]cn1)NC(=O)CNC(=O)CN)[C@@H](C)O)C(=O)N[C@@H](CC(C)C)C(=O)N[C@@H](Cc1ccccc1)C(=O)N[C@@H](CCCCN)C(=O)N[C@@H](CC(=O)O)C(=O)N[C@@H](CC(=O)O)C(=O)N[C@@H](Cc1ccc(O)cc1)C(=O)N[C@@H](Cc1ccccc1)C(=O)N[C@@H](C)C(=O)N[C@@H](CCCCN)C(=O)N[C@@H](CCCCN)C(=O)N[C@@H](CC(N)=O)C(=O)N[C@@H](CCC(=O)O)C(=O)N[C@@H](CCC(=O)O)C(=O)N[C@@H](CCCNC(=N)N)C(=O)N[C@@H](CCCCN)C(N)=O | HCV IRES RNA | RNA cleavage, gel electrophoresis | hepatitis C virus | 10 µM, added: co-reagents 1 mM, fluorescein-labelled HCV RNA 10 µM | – | initial rate | 349 ± 93 nM/min
O=C(O)COc1c2c(c(OCC(=O)O)c3c1C1CC3c3cc4c(cc31)C1CC4c3ccccc31)C1CC2c2cc3c(cc21)C1CC3c2ccccc21 | DOPC | 1H NMR titration | methanol-d4 | CH2-N(Me)3 signal | – | association constant | 27 ± 4 M⁻¹
CC(C)C[C@H](NC(=O)[C@H](CC(=O)O)NC(=O)[C@@H](NC(=O)[C@H](CCC(=O)O)NC(=O)[C@H](CCCCN)NC(=O)[C@H](Cc1ccc(O)cc1)NC(=O)[C@H](CCCCN)NC(=O)[C@H](Cc1c[nH]cn1)NC(=O)CNC(=O)CN)[C@@H](C)O)C(N)=O | HCV IRES RNA | MALDI-TOF mass spectrometry, measured: 2',3'-cyclic phosphate products | hepatitis C virus | – | – | initial cleavage rate | 4.3 ± 0.5 %/min
O=C1NC2(CC2)COc2ncc(F)cc2[C@H]2COCCN2c2ccn3ncc1c3n2 | – | – | Sprague-Dawley rat, female, serum | oral, 5 mg/kg/day, end of treatment, 4-week subacute toxicity | – | serum urea | 5.91 ± 1.37 mmol/L
Cc1cc(O)cc(C)c1C[C@H](N)C(=O)N[C@H](CCCNC(=N)N)C(=O)N[C@@H](Cc1ccccc1)C(=O)N[C@@H](CCCCN)C(=O)NCCCCCCNC(=O)[C@H](Cc1ccccc1)NC(=O)[C@H](CC1CCCCC1)NC[C@@H]1Cc2ccccc2CN1C(=O)[C@@H](N)Cc1ccc(O)cc1 | delta opioid receptor (mouse) | antagonist | mouse vas deferens | added: DPDPE | – | Ke | 5.89 ± 0.71 nM
COc1ccccc1-c1n[nH]c2nc(NC3CCN(C(=O)Cc4ccc(F)cc4F)CC3)ncc12 | – | bead binding, competition bead pull-down, measured: LINJ.36.4380 | Leishmania donovani extract | 10 µM | reference: vehicle | relative abundance | 0.98
O=C(O)c1ccc(-c2nc(-c3ccccc3Cl)c3sccn23)cc1 | BLVRB human | enzyme activity, inhibitor | K562 intact cells | 24 h | – | lowest significant inhibitory concentration | ≥ 20 µM
CSCC[C@@H]1NC(=O)[C@H](Cc2ccccc2)NC(=O)CNC(=O)[C@H](NC(=O)[C@@H](N)Cc2ccc(O)cc2)CSSC[C@@H](C(=O)N[C@@H](Cc2c[nH]c3ccccc23)C(=O)NCc2cc(C(F)(F)F)cc(C(F)(F)F)c2)NC(=O)[C@@H]2CCCN2C1=O | mu opioid receptor, guinea pig | inhibition of contraction, agonist | electrically stimulated guinea pig ileum | – | – | IC50 | 1000 ± 200 nM
CC(C)(C)C(=O)OCOP(=O)(OCOC(=O)C(C)(C)C)C1CCCN(O)C1=O (stereo not drawn) | M14 | – | – | – | – | log TGI | -4.85 log M
COc1ccccc1-c1n[nH]c2nc(N[C@H]3CC[C@H](NS(=O)(=O)CC(C)C)CC3)ncc12 | – | bead binding, competition bead pull-down, measured: LINJ.33.1410 | Leishmania donovani extract | 10 µM | reference: vehicle | relative abundance | 1
CC[C@@H]1CN2CCc3c([nH]c4cccc(OC)c34)[C@@H]2C[C@@H]1/C(=C\OC)C(=O)OC | rabbit anti-mitragynine polyclonal IgG | antigen binding, competitor, competitive indirect ELISA | 10% methanol | 30 min both antibody incubations | – | IC50 | 1.25 µg/mL and 1 µg/mL

A few entries again:
SMILES | tested on | test | system | conditions | scale | endpoint | result
CSCC[C@@H]1NC(=O)[C@H](Cc2ccccc2)NC(=O)CNC(=O)[C@H](NC(=O)[C@@H](N)Cc2ccc(O)cc2)CSSC[C@@H](C(=O)N[C@@H](Cc2c[nH]c3ccccc23)C(=O)NCc2cc(C(F)(F)F)cc(C(F)(F)F)c2)NC(=O)[C@@H]2CCCN2C1=O | mu opioid receptor, guinea pig | inhibition of contraction, agonist | electrically stimulated guinea pig ileum | – | – | IC50 | 1000 ± 200 nM
